Measured values gathered from unrelated publications.
Numbered parts are unrelated; each lists some results of a single study.

Study 1
Target: Interferon regulatory factor 5, full length, phosphomimetic (IRF5, Homo sapiens, UniProt Q13568-2, residues 1-514, S451D/S453D/S456D/S462D)
Technique: protein-binding microarray
Form: double-stranded DNA, one strand shown
Medium: in vitro
Concentration: 940 nM top
Setting: 60-bp whole probe
Together with: salmon DNA 0.4 mg/ml
Baseline: random background probes
Direction: higher = stronger binding
All sequences stand within: GCCTAGCAC … GTCTTGATTCGCTTGACGCTGCTG
Strand | fitted relative affinity
TTAGGTCGCCTTTTCCTTTAGTGCTAG | 0.0414 z-score
TTAGTTTTCGACACTGGGTTAGTGCTA | 1.78 z-score
TTAGGTCTCGGTTGCGGTTAGTGCTAG | 4.98 z-score
TTAGGACTTGGGTTTCGGTTAGTGCTA | 5.84 z-score
TTAGAACTGAGTTTCGAGTAGTGCTAG | 3.38 z-score
CTCATTTTCGTTTTGTGTCTGTGCTAG | 3.09 z-score
TTAGGACTGGGTCTCGATTAGTGCTAG | 0.954 z-score
CACAGAACATATTAGTATATGTGCTAG | 0.199 z-score
GACGAGCTCAGACTGGAGACGTGCTAG | -0.749 z-score
TCCCCTCTAGGTTCTCTGAAAGTGCTA | -0.0303 z-score
GCCGGTATCGACACTGGGGACGTGCTA | 4.4 z-score
GACGATTTCGGGACTGGAGATGTGCTA | 0.338 z-score
TTAGGACTGGACTATCGTTTAGTGCTA | -0.315 z-score
TCATCTCCCATTCTGAAACTGTGCTAG | 0.989 z-score
TTAGGTATCGGGTATCGATTAGTGCTA | 6.93 z-score
TTAGAACTGGGGACTCGATTAGTGCTA | 0.0293 z-score
TCAGATTTCGGGTTTCGATTAGTGCTA | 6.05 z-score
GACCGTTTCGGTATCGGGACGTGCTAG | 7.96 z-score
TCACTGGTCACTCTCTGACTGTGCTAG | 0.411 z-score
GACCGACTGGGGTTTCGGGACGTGCTA | 3.09 z-score
TTAGGACTGAGTTTCGGTTAGTGCTAG | 7.53 z-score
GACGATTCCAGTTTCGCGACGTGCTAG | 1.53 z-score
AACGGTTTCCTTTCCCTGACGTGCTAG | 1.91 z-score
ATAGAACTGAGTATCGATTAGTGCTAG | 4.16 z-score
TTAGATTTCGGTTCCGATTAGTGCTAG | 3.21 z-score

Study 2
Target: RING finger protein unkempt homolog, zinc fingers 1-6, GST-SBP tag (UNK, Homo sapiens, UniProt Q9C0B0, residues 30-357)
Technique: RNA Bind-n-Seq
Form: RNA
Medium: in vitro
Concentration: not given
Setting: RNA with constant flanks, human and mouse sites, ends assumed
Baseline: input RNA pool
Direction: higher = stronger binding
All sequences stand within: GGGAGUUCUACAGUCCGACGAUC … CAACAGAGGAUUGAGCAUCA
Target sequence (chain): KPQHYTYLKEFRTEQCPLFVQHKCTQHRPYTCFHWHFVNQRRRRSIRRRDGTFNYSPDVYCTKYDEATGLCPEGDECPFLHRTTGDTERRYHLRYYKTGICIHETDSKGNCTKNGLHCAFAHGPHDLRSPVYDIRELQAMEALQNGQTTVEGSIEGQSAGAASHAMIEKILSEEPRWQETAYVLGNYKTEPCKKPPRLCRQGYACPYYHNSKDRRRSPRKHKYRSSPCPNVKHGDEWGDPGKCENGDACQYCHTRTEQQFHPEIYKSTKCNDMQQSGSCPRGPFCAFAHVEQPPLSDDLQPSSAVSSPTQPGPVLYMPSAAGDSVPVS
Strand | bound/input enrichment [ratio]
GAGGAGAAGCAGCGGGAGCUGGCCCGGAAGGGCUCCCUGAAGAAUGGCAGCAUGGGUAGCCCUGUCAACCAGCAACCCAAGAAGAACAAUGUCAUGGCCCGAACAAGGCUGGUCGUCCCC | 0.0973
CUCACGCAGCAGUUGUGGUCAAUAUUGUGGUAGUCGCUAAUUGUACUGGUUUAAGUGUGCAUUAGUAGUGUCUCCCCAGCUAGAUUGUAAGCUCCUGGAGACAGGGACCACCUCCACCAA | 0.372
UUGAAUCUGCCCACCUUCAGUGUCCGGGUCAUUGACAAAGAUGGCAUCCACAAUCUGGAGAACAUUGCCUUCCCUAAGCGGGACUCCUAACGUCACGUCCUUCCCUCCCACUCACCAGGG | 0.229
CUUGUGGAGAAGGUGCUUCCUGGGCACUUCAAUACCUUUGGUGCCGAAAGGCUGUUUCGCUUAGCUUCUAACUAUAUUUCAAAAGCUGGGAUAUGCCACAAAGUGUCUACUUUUGCCAUG | 0.251
GAUAUUUUGGGUGUUAAAAAGGAAAUGAUCCGACUAGAUGAAGUCCCCAAUCUGAGUUCCUUAGUAUCCAAUUUCGAUCAGCAGCAGCUCGCUAAUUUCUGCCGGAUUCUGGCUGUCACC | 0.395
ACAUUAAAGUCCUAAGUCAUCUAAGCCAUUCAUUGCCUGUGAAUUAUUCUGCUUGCUUUUUUAGUCAGGUGCUGCUUUUAAACAUUCUGAUGGGGAGCCUAGGGUUUAAAAUUAGCCUGU | 1.56
ACCCAGCCAAACCCACCUCCACCAUGGGGGCCAUGACUCAGCUGUUGGCAGGUGUCUUUCUUGCUUUCCUUGCCCUCGCUACCGAAGGUGGGGUCCUCAAGAAAGUCAUCCGGCACAAGC | 0.103
UAAUCGGGGGUAAACAUUUUUGAAGAUUUAUUCUUUUUGUGUUGCUGGGGUGUAUACAUUUAUGUCUUUGUGAAAUACACUGGUGGUGUCCUUCUUACAAAACUUUUGAAAUAAAAAAAA | 0.348
GACUCCCUCAUUAGCAAUGACUCAGAAGUCAUCAUAGAGCCCAAGGAACAACUAGGACAUCAUGAUUCUCAGCAUUUGGAUAAAUUUGACAUUCCUUUUGAAAUGUUAGAAGAUGAUAUU | 3.87
AACGUGGAGUUGAGUUCCUUGGCCCGGCUUCCCAGCUUGAAUAAACUCCGGAAGUUGGAACUUAGUGACAAUAUAAUUUCUGGAGGCUUGGAAGUCCUGGCAGAGAAAUGUCCAAAUCUU | 0.325
AAAUUUAUAUUAAUAAAUUACUAAACUAAGAGUAUCAGGUUAUUUAUAUAUUUGCAAGCAAAGGACAGUAAGAAGUUGACUGGCAAAAGAGCAGUGCUGAAGGAGGAGAUCCAGGUUUAA | 0.68

Study 3
Target: Max-binding protein MNT, bHLH-zipper, MAX partner unstated (MNT, Homo sapiens, UniProt Q99583, residues 220-300)
Technique: protein-binding microarray
Form: double-stranded DNA, one strand shown
Medium: in vitro
Concentration: not given
Setting: k-mer, scored over probes, only values ≥0.25
Direction: higher = stronger binding
Target sequence (chain): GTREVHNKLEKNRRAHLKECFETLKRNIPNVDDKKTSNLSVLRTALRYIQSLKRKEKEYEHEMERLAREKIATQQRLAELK
Strand | E-score
GCGCACGC | 0.401
ATGCACAC | 0.299
CGTGGGAG | 0.322
TCACGTGA | 0.489
CACGCGAC | 0.45
ACATGACC | 0.319
ACATGGAA | 0.351
CGTGCGCC | 0.397
CACGCCGA | 0.357
CACGCTGG | 0.382
CATGTGGC | 0.472
CTCCACGC | 0.392
ACATGCGT | 0.446
AAGCACAT | 0.358
CGCAACAC | 0.251
ACGTGAGT | 0.397
GCATATGC | 0.322
CCCACGGC | 0.253
CATGCCCG | 0.345
CACATGCC | 0.434
CGTGGCCC | 0.38

Study 4
Target: Histone acetyltransferase KAT6A, winged helix 1, GST fusion (KAT6A, Homo sapiens, UniProt Q92794, residues 1-85)
Technique: protein binding microarray
Form: double-stranded DNA, one strand shown
Medium: in vitro
Concentration: not given
Setting: 8-mer, flanks averaged, mean of 2 arrays, mostly near background
Baseline: not given
Direction: higher = stronger binding
Residues (chain): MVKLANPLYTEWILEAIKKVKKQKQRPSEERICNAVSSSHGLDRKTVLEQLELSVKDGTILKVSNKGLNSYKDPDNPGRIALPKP
Strand | E-score
GGGTTTGA | -0.0576
AGCCCAAA | -0.105
ATGTGAGC | -0.00121
AGGCCTGG | -0.147
AGAATTTG | -0.229
CTACGCGC | 0.414
GAAAAAAC | -0.147
CCAATCGG | -0.00221
AAAGTCCG | 0.161
TCAGCGGA | 0.181
GGGGGTCA | -0.0174
GACACCGA | 0.101
AACTAGAA | -0.126
ACGGCACA | 0.185
CTAGTGCC | 0.216
CAGACAAC | -0.158
AGACGAGG | -0.11
CTTCCTCC | -0.0888
GTCAAAAA | -0.242
ATCAAGCG | 0.226
ACGACTAC | -0.0751
AGGCCTTA | -0.202
ATCACTGC | -0.0131
AATTTATC | -0.0674
CAATGCGA | -0.0469

Study 5
Target: Ras GTPase-activating protein-binding protein 1, C-terminal RGG region (G3BP1, Homo sapiens, UniProt Q13283)
Sequence of UniProt Q13283 (whole entry, looked up): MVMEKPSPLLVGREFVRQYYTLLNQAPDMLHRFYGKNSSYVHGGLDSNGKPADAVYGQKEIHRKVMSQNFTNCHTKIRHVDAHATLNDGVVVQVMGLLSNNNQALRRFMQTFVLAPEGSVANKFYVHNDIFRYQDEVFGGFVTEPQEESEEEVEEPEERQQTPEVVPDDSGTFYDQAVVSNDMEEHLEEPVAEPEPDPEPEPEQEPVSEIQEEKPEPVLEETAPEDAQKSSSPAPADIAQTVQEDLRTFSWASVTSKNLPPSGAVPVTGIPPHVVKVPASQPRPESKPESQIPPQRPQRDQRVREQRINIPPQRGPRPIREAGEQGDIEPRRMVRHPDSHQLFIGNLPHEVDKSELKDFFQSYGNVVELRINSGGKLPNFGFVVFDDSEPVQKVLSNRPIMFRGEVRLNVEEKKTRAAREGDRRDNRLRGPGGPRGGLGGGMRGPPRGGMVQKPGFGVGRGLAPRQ
Technique: RNA Bind-n-Seq
Form: RNA
Medium: in vitro
Concentration: 1 µM
Setting: whole 134-nt RNA, ends assumed
Together with: 150 mM KCl
Baseline: input library
Direction: higher = stronger binding
All sequences stand within: GGGAGUUCUACAGUCCGACGAUC … UGGAAUUCUCGGGUGUCAAGG
Strand | log2 enrichment
CAAGUCCUGUGCUACACAUCGUAUGUACCGAAUCGGGGCCGGGGCCGGGGCCGGGAAAGUAUUAUGUUACGCCGUUCGGAUCUGCACUUC | -1.99
GCAGGAAGUAAAAACAAAUGCAAAUGCUUCGGAUAGUGGCAGGGGUGGGGGUUGCUAAGGAAAGGGUGGGAUGGGAGUGGGUAAAGAGUU | 2.01
UGUUUUAAGGUUGCCAACUUUGCAACAAUGGAAGAUGAAGAAGAGCUAGAAGAGCGUCCUCACAAGGACUGGGAUGAGAUCAUUCCAGAG | -2.03
GUCCUGUGCUACACAUCGUAUGUACCGAAUCGGGGAAAGGGGUUUGGGGUUUUUGGGGAAAGUAUUAUGUUACGCCGUUCGGAUCUGCAC | 3.12
UAACUUUAGAGGUGGAUCUGAUGGAUAUGGCAGUGGACGUGGAUUUGGGGAUGGCUAUAAUGGGUAUGGAGGAGGACCUGGAGGUGGCAA | -1.26
GUCCUGUGCUACACAUCGUAUGUACCGAAUCGGGUUUUUUUGGGAAAAAAAGGGUGGGAAAGUAUUAUGUUACGCCGUUCGGAUCUGCAC | -0.0409
UUGAGAAAAGCACCCAUAAUUUGCUACUUGAGGAUUUUAUUCCCUGGAUUCUCUGGAUGCUCAUUGCAUGAAAAGUGGAAAAGUUUAGAU | -0.979
AAGUCCUGUGCUACACAUCGUAUGUACCGAAUCGGGGAAAGGGGUGGGGUUUGGGGAAAGUAUUAUGUUACGCCGUUCGGAUCUGCACUU | 1.76
UCCUCAAGUCCUGUGCUACACAUCGUAUGUACCGAAUCGGUGGAGGUUUGGAAAGUAUUAUGUUACGCCGUUCGGAUCUGCACUUCCAGC | -0.98
AGUCCUGUGCUACACAUCGUAUGUACCGAAUCGGGGUUUUUGGGGAAAGGGGAGGGGAAAGUAUUAUGUUACGCCGUUCGGAUCUGCACU | 3.12
UCCUCAAGUCCUGUGCUACACAUCGUAUGUACCGAAUCGGGGAGGAGGGAGGAAAGUAUUAUGUUACGCCGUUCGGAUCUGCACUUCCAG | -0.525
AGUCCUGUGCUACACAUCGUAUGUACCGAAUCGGGCCCCGGGCCCCGGGCCCCGGGGAAAGUAUUAUGUUACGCCGUUCGGAUCUGCACU | -2.45
CAAGUCCUGUGCUACACAUCGUAUGUACCGAAUCGGGGUUGGGGUUGGGGUUGGGGAAAGUAUUAUGUUACGCCGUUCGGAUCUGCACUU | 2.42
UCAAGUCCUGUGCUACACAUCGUAUGUACCGAAUCGGAAGGGGAAGGGGAAGGGAAAGUAUUAUGUUACGCCGUUCGGAUCUGCACUUCC | 1.38

For quick reference, copied from above (study 5):
Strand | log2 enrichment
UGUUUUAAGGUUGCCAACUUUGCAACAAUGGAAGAUGAAGAAGAGCUAGAAGAGCGUCCUCACAAGGACUGGGAUGAGAUCAUUCCAGAG | -2.03
GUCCUGUGCUACACAUCGUAUGUACCGAAUCGGGGAAAGGGGUUUGGGGUUUUUGGGGAAAGUAUUAUGUUACGCCGUUCGGAUCUGCAC | 3.12
UAACUUUAGAGGUGGAUCUGAUGGAUAUGGCAGUGGACGUGGAUUUGGGGAUGGCUAUAAUGGGUAUGGAGGAGGACCUGGAGGUGGCAA | -1.26
GUCCUGUGCUACACAUCGUAUGUACCGAAUCGGGUUUUUUUGGGAAAAAAAGGGUGGGAAAGUAUUAUGUUACGCCGUUCGGAUCUGCAC | -0.0409
UUGAGAAAAGCACCCAUAAUUUGCUACUUGAGGAUUUUAUUCCCUGGAUUCUCUGGAUGCUCAUUGCAUGAAAAGUGGAAAAGUUUAGAU | -0.979
AAGUCCUGUGCUACACAUCGUAUGUACCGAAUCGGGGAAAGGGGUGGGGUUUGGGGAAAGUAUUAUGUUACGCCGUUCGGAUCUGCACUU | 1.76
UCCUCAAGUCCUGUGCUACACAUCGUAUGUACCGAAUCGGUGGAGGUUUGGAAAGUAUUAUGUUACGCCGUUCGGAUCUGCACUUCCAGC | -0.98
